Experimental data pooled from the literature.
Parts stem from different laboratories: compare values within a part only.

Block 1
Target: Histone acetyltransferase KAT6A, winged helix 2, GST fusion (KAT6A, Homo sapiens, UniProt Q92794, residues 85-181)
Method: protein binding microarray
Molecule type: double-stranded DNA, one strand shown
Medium: in vitro
Tested at: not given
Setting: 8-mer, flanks averaged, mean of 2 arrays, mostly near background
Relative to: not given
Reading: higher = stronger binding
Target sequence (chain): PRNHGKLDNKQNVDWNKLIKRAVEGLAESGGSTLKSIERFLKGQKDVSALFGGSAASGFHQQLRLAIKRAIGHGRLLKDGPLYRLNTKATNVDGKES
| Oligonucleotide | E-score |
| --- | --- |
| TAGTTGAA | 0.0885 |
| CGCGCTTC | -0.0203 |
| AAAGGCCT | -0.162 |
| CGGCGGAA | 0.116 |
| CGCATCGA | 0.127 |
| TGACTCCA | -0.119 |
| CCCGTATC | -0.0744 |
| ATCGTGTG | -0.0596 |
| ACGGCGTG | -0.0116 |
| AACGGGTC | -0.0246 |
| AAAATCTA | 0.128 |
| ACGAGACT | -0.13 |
| AGCTGATC | 0.133 |
| CGCCGACG | 0.135 |
| ATTGCCCA | 0.038 |
| ATCCCGGC | 0.138 |
| CTTTTGCC | 0.0732 |
| GTTAACAA | -0.0387 |
| TGAACCCA | 0.0974 |
| CTGCGCGC | 0.202 |
| ATCTCGTG | -0.0719 |
| CTGGCACA | 0.0361 |
| ACGGTCAA | -0.0769 |
| ATTGAGGG | 0.0755 |
| CTGAAGAA | -0.158 |

Block 2
Target: RNA binding protein fox-1 homolog 2, RRM domain, GST-SBP tag (RBFOX2, Homo sapiens, UniProt O43251-10, residues 100-194)
Method: RNA Bind-n-Seq
Molecule type: RNA
Medium: in vitro
Tested at: 365 nM
Setting: natural RNA segment, single round, ends assumed
Relative to: no-protein control
Reading: higher = stronger binding
Constant ends, left off below: GGGAGUUCUACAGUCCGACGAUC … UGGAAUUCUCGGGUGCCAA
Residues (chain): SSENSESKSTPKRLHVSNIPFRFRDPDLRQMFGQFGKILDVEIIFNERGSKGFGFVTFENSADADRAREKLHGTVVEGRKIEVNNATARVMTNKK
| Oligonucleotide | RBNS enrichment (R) |
| --- | --- |
| GCCUGUUGGUCUCUCAUUGGACGUUUUUGGGUCUCACUCAUGCUUACUGAAACAUUGUGCCAAGAAACUCUGUGGGAUUUGUGUCCCUUAAACCAGACUCACUUUUCUGA | 0.38 |
| UUUGUGGGAUGUCCCCAAAGGAAAGCUAUGUUCUAAUUUUAUCAUUUCCAUCUGUCUGGUUAUGUCAAGUUAAUUCAGAAAGAGAAGAGACAGUGACCAACCCUGAGAGG | 0.691 |
| GAGAAGUGAGGUUCAGGGAGGGUGCUUAGAGACCAGCCUGUUCUUUGAGCUGUAGAGACUCAUGCUGGAUUCAAACUGAGAACCCUGGAAGGAAGGCCAGGCUAGUUUAG | 1.64 |
| CUUCUCACACAGCAAGUCCGAGCUGUGAACUGUAGUUCGUGAGAGAAAUCAGCCUGAGGCUGUCUUCACAGGCAGACAUCUAUCCUGCUUCCUCUUCCGGGGCUUCUGGG | 0.212 |
| UGUUGUCAGCAUGAUUCAUGUAUUUAUAUAGAUUUGAUUAUUUUAAUUUUCCUGUCUCUUUUUUUUGUAAAUUUUAUGUACAGAUUUGAUUUUUCAUAGUUUUAACUAGA | 2.85 |
| AUUGCAACAAAGUUAGGAAGUUUGUUGUUUGUUUAUUAUAAACAAAAAGCAUGUGAAAGUGCACUUAAGAUAGAGUUUUUAUUAAUUACUUACUUAUUACCUAGAUUUUA | 2.19 |
| AGGUUUCCUGGAGGCAAAGUUUAUGAAAUCCUUUCUGUAACUCCAUAAAGAUGUCUGCAGCUAUUUCCUACCCAGAUGUUCCUGAUGUGAUAAGCAGGGGACUUUUUUUU | 0.329 |
| AAAUAAACUGCCAGCAAACUUUCUAACUUGUAUUUUAACUGUUAAAGAAGAGAUUAAAAACUUCGGCUUUGGACAUGUCCACAUUAUGGACUGUCAUCUUAUUUUUAAAA | 0.927 |
| GGACGUUUUUACCCGUUCCGUAGACUCUGUAACUGUCAGCCCAGUUUGCCUCUGCUGACUCCUGGCAUCACCUCCUGGGACACUUGCUGUCUUUUUUACUUGUCUCAUUU | 0.97 |
| AAUGUUGGAGGAGAGAUAAGUUAUAGGGAGCUGGAUUUCAAAACGUGGUCCAAGAUUCAAAAAUCCUAUUGAUAGUGGCCAUUUUAAUCAUUGCCAUCGUGUGCUUGUUU | 0.475 |
| CUUGGUCCUGGGGACCACCUGCCUGGGGCAGUGGACAUCCUAACUAAACAGGCUUCUGGCAGUAGCUUUGGUUCCUAUCCCAUCGAAAUUCCCCAAAGCCCUGGGCCACU | 0.461 |
| ACCGUACACUUCCCACACGAGCUGCGGCUGCCAGCCUCGGGCCAUCAGCCUAGGAGAGCAGAUGCAGCUCCAGGGGCUCGACUUAUAGCCAGUUACAGCUCCCCGGCUCU | 0.155 |

Block 3
Target: Fragile X messenger ribonucleoprotein 1, C-terminal low-complexity region (Fmr1, Mus musculus, UniProt P35922)
Method: RNA Bind-n-Seq
Molecule type: RNA
Medium: in vitro
Tested at: 200 nM
Setting: whole 134-nt RNA, ends assumed
Added: 150 mM KCl
Relative to: input library
Reading: higher = stronger binding
Constant ends, left off below: GGGAGUUCUACAGUCCGACGAUC … UGGAAUUCUCGGGUGUCAAGG
| Oligonucleotide | log2 enrichment |
| --- | --- |
| CACAGACAACACGCACCCACACAGACACAGAGGGAAGGGGUUGAGAUGGGGACAGGGUGCACAGCAGGGCGGGGUAGGACCCCAGCCCCU | 0.919 |
| CAAGUCCUGUGCUACACAUCGUAUGUACCGAAUCGGAAAAAGGUUUUUGGUUUGGAAAGUAUUAUGUUACGCCGUUCGGAUCUGCACUUC | -1.01 |
| GUCCUGUGCUACACAUCGUAUGUACCGAAUCGGGGAAAGGGGAAAGGGGUUUUUGGGGAAAGUAUUAUGUUACGCCGUUCGGAUCUGCAC | 0.232 |
| GUCCUGUGCUACACAUCGUAUGUACCGAAUCAAACCCAAAUUUUUUUAAAUUUUUAAAAAAGUAUUAUGUUACGCCGUUCGGAUCUGCAC | -0.204 |
| UAACUUUAGAGGAGGAUCUGAUGGAUAUGGCAGUGGACGUGGAUUUGGGGAUGGCUAUAAUGGGUAUGGAGGAGGACCUGGAGCUGGCAA | 0.119 |
| UCCUGUGCUACACAUCGUAUGUACCGAAUCGGGGUUUGGGGAAAGGGGAAAAAAAGGGGAAAGUAUUAUGUUACGCCGUUCGGAUCUGCA | 0.378 |
| CACAGACAACACGCACCGACACAGACACAGAGGGAAGGGGUUGGGAUGGGGACAGGGUGCACAGCAGGGCGGGGUAGGACCCCAGCCCCU | 1.16 |
| UGUGCUACACAUCGUAUGUACCGAAUCGGGGUUUUUUUGGGGUUUUUUUGGGUUUUUUUGGGGAAAGUAUUAUGUUACGCCGUUCGGAUC | 0.235 |
| UGGCCCUGGUGGCAUGCGGGGAGGAAGAGGUGGCCUCAUGGAUCGUGGUGGUCCCGGUGGAAUGUUCAGAGGUGUCCGUGGUGGAGACAG | 0.168 |
| UCAAGUCCUGUGCUACACAUCGUAUGUACCGAAUCGGCCCGGCCCGGGCCCGGGAAAGUAUUAUGUUACGCCGUUCGGAUCUGCACUUCC | -0.462 |
| UGUGCUACACAUCGUAUGUACCGAAUCGGGGAAAAAAAGGGGUUUUUUUGGGGAAAAAGGGGAAAGUAUUAUGUUACGCCGUUCGGAUCU | 0.184 |
| GCAGGAAGUAAAAACAAAUGGAAAAACUUCGGAUAGUGGCAGGGGUGGGGGUUGCUAAGGAAAGGGUGGGAUGGGAGUGGGUAAAGAGUU | -0.0616 |
| GCAGGAAGUAAAAACAAAUGGAAAUGCUUCGGAUAGUGGCAGGGGUGGGGGUUGCUAAGGAAAGGGUGGGAUGGGAGUGGCUAAAGAGUU | 0.382 |
| GCAGGAAGUAAAAACAAAUGGAAAUGCUUCGGAUAGUGGCAGGGGUGGGGGUUGCUAAGGAAAGGGUGGGAUUGGAGUGGGUAAAGAGUU | 0.337 |

Block 4
Target: RING finger protein unkempt homolog, zinc fingers 1-6, GST-SBP tag (UNK, Homo sapiens, UniProt Q9C0B0, residues 30-357)
Method: RNA Bind-n-Seq
Molecule type: RNA
Medium: in vitro
Tested at: not given
Setting: RNA with constant flanks, human-mouse chimeric sites, ends assumed
Relative to: input RNA pool
Reading: higher = stronger binding
Constant ends, left off below: GGGAGUUCUACAGUCCGACGAUC … CAACAGAGGAUUGAGCAUCA
Target sequence (chain): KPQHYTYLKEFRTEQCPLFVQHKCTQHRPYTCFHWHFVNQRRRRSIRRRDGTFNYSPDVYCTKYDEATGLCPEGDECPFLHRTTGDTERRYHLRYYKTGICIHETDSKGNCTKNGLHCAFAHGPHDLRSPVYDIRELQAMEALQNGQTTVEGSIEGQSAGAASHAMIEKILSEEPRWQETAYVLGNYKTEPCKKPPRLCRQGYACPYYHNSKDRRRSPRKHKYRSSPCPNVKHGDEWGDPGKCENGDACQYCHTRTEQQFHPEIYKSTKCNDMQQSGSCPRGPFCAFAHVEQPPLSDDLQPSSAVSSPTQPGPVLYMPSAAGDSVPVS
| Oligonucleotide | bound/input enrichment [ratio] |
| --- | --- |
| AAAGUGAUGACUAUGUUUGUCCAACGACAGGUAUUUUCGGAGAGCAAAGAUGAGAUUGCGUUAGUCCUGUUUGGUACAGAUGGCACUGAUAAUGCCCUUGCUGGCAAGGAUCAGUAUCAG | 0.142 |
| ACUCUUGACUCUUUCCAUCCUCUUCCUUUUCCUCUUGAUAUUCAAGGCCAUGAAUCCCAAAAUAACAAUCUAUCUUACUAGCACCCAAACAGAGGUGGAAUAAAUCCACCCCAGUGUCUC | 0.998 |
| AAUAGAGGAUCCACCUCAAUUGAAGUGGGGAGUAAAGGUGUGGCCACCACACCUAACUUGAUGGAUAUAUAUUUUUUUUAAUAUGAAUCUUCCUGUUCGUCCAGGGAAGAAAGAUUUGUU | 1.36 |
| GUUGCCAGCUUCCGGUUCCGUUGGGCUCGGUUCUCUCCUGAGCUACGUGUCUCUACGUUUUAGGUGUCGGUUGGGUAAAACAUGGAUCAGGUAAUGCAGUUUGUGGAGCCCAGCCGGCAG | 0.0893 |
| UAAAUUAGCCAGCACCAUUUCUGUUUCUCCCUGGGCUGCGGAAAGCCAGAAGAUUUUAUCUAGCUUAUACAAGGCUGCUGGUGUUCCCUCUUUUUUUCCCUCUCUCUGUUUUUGGCUGCA | 1.35 |
| AUGGAGAAGGAUUCUCUGCCCCGCUUUGUGCGCUCUGAAUUUUAUAAGGAGCUAAUCAAGUAGUCAUUUAGCCAGGCUUCCAAAAGUUGCCCUGUGAGUUGAGUUACAUAAUAACCCGCA | 0.6 |
| GCAGGAUCUUCUAAGUACCAGUGGGGCAUUAUGAAAUCCCUUGGGCUCUCUGAUGACGACAUAGUGAAGUUUUCUGAAGCAGAGCACUGGCUUGAUUAUUUCCCACCACUGGCCGUUCAG | 0.0985 |
| CUGGCCUGGCCCUCCCCAGGGGCCUCCUUUCGUAUAGUAACUGUCAGUGCAUCAGAUACUUUCAGCUGCAACUCCCUACUGGGUGGGGCACCCAUUUCAGGCAGAAGUUGGUGCCCCCCU | 0.0948 |
| UCAACAGACAACAUCAAAUACCAGCCUAAGGGGGGUCAGGUACAAAUUGUUACUAAGAAAAUAGACCUAAGCCAUGUGACAUCCAAAUGUGGCUCUCUGAAGAACAUCCGCCACAGGCCA | 0.498 |
| GAUCCACAGUGGUCUGAGGAGCAACUCAUUGCUGCAAAAUUCUGUUUUGCUGGCCUUGUUAUAGGGCAGACUGAAGUGGACAUCAUGAGUCAUGCUACACAAGCUAUAUUUGAAAUACUG | 0.146 |
| CUGAAAAACACAGAUAUCAAAGUUGUUGACUUUGGAAGUGCAACGUAUGACGACGAACAUCACAGUACUUUGGUGUCUACCCGGCACUACAGGGCUCCCGAGGUCAUUUUGGCUUUAGGU | 0.155 |
